# Assay results pooled from the literature.
# Each line is one published result; not all experiments were run side by side. ± marks the error that the study gave.
Compound,cell line,assay,system,conditions,scale,measurement,value
O=c1c(O)c(-c2ccc(O)cc2O)oc2cc(O)cc(O)c12,BEAS-2B,"enzyme activity, inducer, fluorogenic substrate imaging",,"10 µM, 24 h",baseline: control,CYP1A1 induction,1.52 fold
CSc1ccc(OCc2ncc([N+](=O)[O-])n2C)cc1,LMH chicken hepatoma,,,,,CC50,243 µM
CCCS(=O)(=O)Nc1ccc(F)c(C(=O)c2c[nH]c3ncc(Cl)cc23)c1F,MC3T3-E1,,,100 µM,baseline: control,cell proliferation,83.2%
CCCC(=O)OCSc1ccccc1C(=O)NCCn1ccc(=O)c2cc(F)ccc21,PHA-P-stimulated PBMC pooled,"cytotoxicity, XTT",,7 days,,TC50,> 100 µM
CC(C)=CCc1cc2c(cc1O)O[C@H](c1ccc(O)cc1)CC2=O,BEAS-2B,"enzyme activity, inducer, fluorogenic substrate imaging",,"10 µM, 24 h",baseline: control,CYP1A1 induction,0.78 fold
CC(C)(c1ccc(O)cc1)c1ccc(O)cc1,"HepG2 spheroids, dissociated",annexin V-FITC/PI flow cytometry,,"0.1 µM, 24 h",,viable cells,72.9 ± 6.29%
C=C(C)[C@@H]1CC[C@]2(C(=O)O)CC[C@]3(C)[C@H](CC[C@@H]4[C@@]5(C)CC[C@@H](O)C(C)(C)[C@@H]5CC[C@]43C)[C@@H]12,BEAS-2B,"enzyme activity, inducer, fluorogenic substrate imaging",,"10 µM, 24 h",baseline: control,CYP1A1 induction,0.83 fold
Cc1noc(C)c1Cn1cc(N2C(=O)CN(Cc3cccc(O)c3)C2=O)cn1,human blood lymphocytes,,,"1200 µg/mL, 3 h, with 5% S9",,aberrant cells without gaps,3.9%
Cc1c(C(=O)O)ccc2c3n(nc12)[C@@H]1[C@H](C3)N(CC2CC2)[C@@]2(C(=O)Nc3cc(Cl)ccc32)[C@H]1c1cccc(Cl)c1F,human bone marrow megakaryocyte progenitors,megakaryocyte colony formation,collagen-based medium with cytokines,10 to 12 days,,IC90,0.119 µM
Fc1ccc(N/N=C/c2ccc(-c3cccc(/C=N/Nc4ccc(F)cc4)c3)cc2)cc1,BEAS-2B,,,31 µg/mL,,cytotoxicity,not toxic
O=c1c(O)c(-c2ccccc2)oc2cc(O)cc(O)c12,BEAS-2B,"enzyme activity, inducer, fluorogenic substrate imaging",,"10 µM, 24 h",baseline: control,CYP1A1 induction,1.2 fold
CCCC(CCC)NC(=O)c1ccc2c(c1)OCO2,CHO-WBL,,,"0.021 mg/mL, 3 h, with rat liver S9",,cells with aberrations,0.5%
CC(=O)Nc1cccc(-n2c(=O)n(C3CC3)c(=O)c3c(Nc4ccc(I)cc4F)n(C)c(=O)c(C)c32)c1,NCI-H2087 (BRAF L597V),,,"6.25 nM, 72 h, unit not given",baseline: DMSO,viability,0.523
N#Cc1ccc2[nH]ccc2c1,uninfected HCT-8,"cytotoxicity, Hoechst nuclei count",,,,EC50,1550 µM
COc1ccc(-c2nn(-c3ccccc3)cc2C=Nc2c(N)nc(S)nc2O)cc1,CCRF-CEM,"cytotoxicity, differential nuclear staining",,48 h,,CC50,18.1 ± 0.96 µM
CCCCCCCCCCCC[N+](C)(C)CCOc1ccccc1,PH5CH8 hepatocytes,high-content cell count,,"72 h, oleate lipid loaded",,CC50,4.9 µM
O=c1c(-c2ccccc2)coc2ccccc12,BEAS-2B,"enzyme activity, inducer, fluorogenic substrate imaging",,"10 µM, 24 h",baseline: control,CYP1A1 induction,0.78 fold
Nc1nc(O)c2ncn(COC(CO)CO)c2n1,HEL or HeLa cells,cell viability,,3 (unit not given),,CC50,> 100 µM
CC(=O)Nc1ccc(O)cc1,THLE-2 transduced with Ad-UGT1A4,cytotoxicity,,48 h,,IC50,2300 ± 250 µM
O=c1c(O)c(-c2ccccc2)oc2ccc(O)cc12,BEAS-2B,"enzyme activity, inducer, fluorogenic substrate imaging",,"10 µM, 24 h",baseline: control,CYP1A1 induction,1.2 fold
O=c1ncn2nc(Sc3ccc(F)cc3F)ccc2c1-c1c(Cl)cccc1Cl,iCell cardiomyocytes hiPSC-derived,CellTiter-Glo,,"concentration not given, 24 h",baseline: vehicle,ATP level,95.4%
COc1ccc(C=NNC(=O)CSc2nc3c(C)cccc3c(=O)n2-c2ccccc2)cc1OS(C)(=O)=O,BJ1,MTT,,100 µM,,cytotoxicity,75.6 ± 2.33%
Cc1cccc2[nH]ccc12,uninfected HCT-8,"cytotoxicity, Hoechst nuclei count",,,,EC50,1910 µM
CC(C)=CC[C@]12Oc3cc(O)c([C@H]4C=C(C)C[C@H](c5ccc(O)cc5O)[C@H]4C(=O)c4ccc(O)cc4O)c(O)c3C(=O)[C@@]1(O)Oc1cc(O)ccc12,BEAS-2B,"enzyme activity, inducer, fluorogenic substrate imaging",,"10 µM, 24 h",baseline: control,CYP1A1 induction,0.89 fold
Cc1ccc2cc[nH]c2c1,uninfected HCT-8,"cytotoxicity, Hoechst nuclei count",,,,EC50,1140 µM
"C=C(C)C(CC=C(C)C)Cc1c(O)cc(OC)c2c1O[C@H](c1ccc(O)cc1O)CC2=O (single isomer, unassigned; (-))",COLO 205,"cytotoxicity, MTT",,48 h,,IC50,34.2 µM
CC(=O)NS(=O)(=O)c1ccc(NC(=O)c2ccccc2C(=O)O)cc1,PH5CH8 hepatocytes,high-content cell count,,"72 h, oleate lipid loaded",,CC50,> 10 µM
COc1ccc2cc[nH]c2c1,uninfected HCT-8,"cytotoxicity, Hoechst nuclei count",,,,EC50,2300 µM
C[n+]1cc(NC(=O)c2ccc3ccc4ccc(C(=O)Nc5cc6ccccc6[n+](C)c5)nc4c3n2)cc2ccccc21,COLO 205,"cytotoxicity, resazurin",,5 days,,CC50,21 ± 2 µM
Cc1cc(C(=O)NC(C)(C)COc2cccc3c2C(N)=NS(=O)(=O)N3)cc(C)n1,human peripheral blood lymphocytes,"CBPI, micronucleus test",,"2 µg/mL, 4 h, with rat liver S9",baseline: vehicle,cytotoxicity,13%
CCCCCCCC[N+](CCCCCCCC)(CCCCCCCC)CCCCCCCC.[Br-],hTERT-RPTEC parental,LDH release,culture medium,"concentration not given, 24 h, 96-well plate",,LDH activity in medium,72.2 mU/mL
Nc1c(CC(=O)O)cccc1C(=O)c1ccc(Br)cc1,THLE-2 transduced with Ad-UGT1A4,cytotoxicity,,48 h,,IC50,220 ± 20 µM
COc1ccc(N/N=C/c2ccc(-c3ccc(/C=N/Nc4ccc(OC)cc4)cc3)cc2)cc1,BEAS-2B,,,15.5 µg/mL,,cytotoxicity,not toxic
C[C@H]1[C@@H](O)O[C@@H]2O[C@@]3(C)CC[C@H]4[C@H](C)CC[C@@H]1[C@@]24OO3,MV4-11 cells,CellTox Green,,24 h,,lowest cytotoxic concentration,1 µM
Cc1cccc(CNC(=O)c2cn(CCNC(=O)c3ccccc3Sc3c([N+](=O)[O-])ncn3C)c3cc4c(cc3c2=O)OCO4)n1,PHA-P-stimulated PBMC pooled,"cytotoxicity, XTT",,7 days,,TC50,> 100 µM
C[C@H]1[C@H](OC(=O)CCC(=O)O)O[C@@H]2O[C@@]3(C)CC[C@H]4[C@H](C)CC[C@@H]1[C@@]24OO3,human primary coronary endothelial cells,cell viability,,,,highest non-toxic concentration,> 50 µM
CO[C@@H]1[C@H](OC(=O)/C=C/C=C/C=C/C=C/C(=O)O)CC[C@]2(CO2)[C@H]1[C@@]1(C)O[C@@H]1CC=C(C)C,LMH chicken hepatoma,,,,,CC50,335 µM
CCc1ccc(-c2nc(CSCC(=O)NCCc3ccccc3)c(C)o2)cc1,PH5CH8 hepatocytes,high-content cell count,,72 h,,CC50,> 10 µM
CCCC(=O)OCSc1ccccc1C(=O)NCCn1ccc(=O)c2cc(C)ccc21,PHA-P-stimulated PBMC pooled,"cytotoxicity, XTT",,7 days,,TC50,> 100 µM
CC(C)Oc1ccc2c(=O)c(-c3ccccc3)coc2c1,BEAS-2B,"enzyme activity, inducer, fluorogenic substrate imaging",,"10 µM, 24 h",baseline: control,CYP1A1 induction,1.14 fold
c1ccc2[nH]ccc2c1,uninfected HCT-8,"cytotoxicity, Hoechst nuclei count",,,,EC50,3720 µM

# Some of these lines once more:
Compound,cell line,assay,system,conditions,scale,measurement,value
C=C(C)[C@@H]1CC[C@]2(C(=O)O)CC[C@]3(C)[C@H](CC[C@@H]4[C@@]5(C)CC[C@@H](O)C(C)(C)[C@@H]5CC[C@]43C)[C@@H]12,BEAS-2B,"enzyme activity, inducer, fluorogenic substrate imaging",,"10 µM, 24 h",baseline: control,CYP1A1 induction,0.83 fold
O=c1c(-c2ccccc2)coc2ccccc12,BEAS-2B,"enzyme activity, inducer, fluorogenic substrate imaging",,"10 µM, 24 h",baseline: control,CYP1A1 induction,0.78 fold
CC(=O)NS(=O)(=O)c1ccc(NC(=O)c2ccccc2C(=O)O)cc1,PH5CH8 hepatocytes,high-content cell count,,"72 h, oleate lipid loaded",,CC50,> 10 µM
CSc1ccc(OCc2ncc([N+](=O)[O-])n2C)cc1,LMH chicken hepatoma,,,,,CC50,243 µM
